Measured values from different studies.
Numbered parts are unrelated; each lists some results of a single study. Changes are numbered by the printed parent chain.

Series 1
Target: Centromere-binding protein 1, full length, His-tagged (CBF1, Saccharomyces cerevisiae, UniProt P17106, residues 1-351)
Chain of UniProt P17106 (whole entry, looked up): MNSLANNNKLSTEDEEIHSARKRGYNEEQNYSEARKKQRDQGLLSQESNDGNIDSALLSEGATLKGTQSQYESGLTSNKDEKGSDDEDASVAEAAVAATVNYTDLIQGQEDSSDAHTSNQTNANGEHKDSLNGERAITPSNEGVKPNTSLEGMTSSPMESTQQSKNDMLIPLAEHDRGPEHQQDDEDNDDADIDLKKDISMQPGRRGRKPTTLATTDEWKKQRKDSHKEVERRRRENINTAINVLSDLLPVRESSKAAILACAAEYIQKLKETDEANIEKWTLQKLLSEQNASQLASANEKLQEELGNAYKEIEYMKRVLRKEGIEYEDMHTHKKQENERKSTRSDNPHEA
Technique: competition protein-binding microarray
Molecule type: double-stranded DNA, one strand shown
Medium: in vitro
Tested at: 2 µM
Setting: whole 60-bp probe, lowest competitor level
Added: Pho4 competitor, 0.05 µM
Reading: higher = stronger binding
The fluorescence intensity of `TTTCGGTTTTTATCGCACGTTTCTTTTTGGTGAGCGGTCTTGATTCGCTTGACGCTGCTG` is reported as 150 a.u.
The fluorescence intensity of `TTGTACATTTTCCATCACGTGCAAAATTTGTTTCAAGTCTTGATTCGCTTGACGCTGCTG` is reported as 7620 a.u.
`TAGTTGTCGTCGTTTCATGTGACGGATTCCCCTTTAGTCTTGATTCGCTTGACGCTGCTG` gave a fluorescence intensity of 149 a.u.
For `CGTCCTAGTGATTGTCACTTTACTTCCATGAGGAAGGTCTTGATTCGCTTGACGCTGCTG`, the fluorescence intensity was 90.9 a.u.
The fluorescence intensity of `CGGGGTTAAGTTTTTCACGTGCGGTGCTTGCAGCAGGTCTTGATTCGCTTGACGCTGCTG` is reported as 394 a.u.
For `ATTATCAATTGCCATCACGTGCAAACCGAAGAAATGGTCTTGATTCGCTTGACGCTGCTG`, the fluorescence intensity was 6470 a.u.
For `CGTCCTAGTGATTGGAATGTGGGTGCCATGAGGAAGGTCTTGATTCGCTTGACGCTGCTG`, the fluorescence intensity was 77.5 a.u.
`GGCCGCCCATGGCCGCATGTGAGCAACGTCGACATTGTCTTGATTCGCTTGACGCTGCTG` gave a fluorescence intensity of 77.2 a.u.
For `AAATTACTAAGTTGGTGAGTGGGTGACGCCGTATGAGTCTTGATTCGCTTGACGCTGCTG`, the fluorescence intensity was 62.2 a.u.
For `AAAAGCAACTCGACCGTCGTGGGTACAATCCCCACCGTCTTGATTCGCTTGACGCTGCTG`, the fluorescence intensity was 59.6 a.u.

Series 2
Target: RNA binding protein fox-1 homolog 2, RRM domain, GST-SBP tag (RBFOX2, Homo sapiens, UniProt O43251-10, residues 100-194)
Technique: RNA Bind-n-Seq
Molecule type: RNA
Medium: in vitro
Tested at: 365 nM
Setting: natural RNA segment, single round, ends assumed
Reference: no-protein control
Reading: higher = stronger binding
Target sequence (chain): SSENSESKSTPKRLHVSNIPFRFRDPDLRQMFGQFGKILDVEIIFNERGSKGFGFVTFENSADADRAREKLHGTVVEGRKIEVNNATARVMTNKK
For `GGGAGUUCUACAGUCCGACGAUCACACAGAAAAACAGAAACUGAGUGUGAGAGUUGUGAAAUACAAGGAAAUGCAGUAAAGCCAGGGAAUUUACAAUAACAUUUCCGUUUCCAUCAUUGAAUAAGUCUUAUUCUGGAAUUCUCGGGUGCCAA`, “RBNS enrichment (R)” read 0.542.
Under “RBNS enrichment (R)”, `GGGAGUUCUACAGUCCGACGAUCGCCUGGGGGAUGCACACUUGUAGCCUCAGAGCUAAGAGGACUCGGUGGAUGGAGCAAGACUGUGAACACGUGUGACCCGGACCCACCUACAGCCCGGUGGACCUUCAGCCUGGAAUUCUCGGGUGCCAA` is recorded as 0.683.
Under “RBNS enrichment (R)”, `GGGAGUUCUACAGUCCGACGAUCUAAUCAUCUAAUUGUUUUUGUCUAGGUCGAGAAUGAAUGUUAGCUGAUGAAAUAAACCCUGACAAGGGUGGCGGGUGUGCUGUGGUCUCUGCGGGCAUAGCUGCCCCUCCUGGAAUUCUCGGGUGCCAA` is recorded as 0.432.
`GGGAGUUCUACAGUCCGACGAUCAGGAUAAUAUAAAAAGCGGAUAGAUGGCGCUAUGUUUGAUUCCUACAACGAACCGAUCACCAGCUCCUUUUCAUUUUUAACUCUUUAAAAGGAUUCAAACGCAACUCAAAUGGAAUUCUCGGGUGCCAA` — result for “RBNS enrichment (R)”: 0.532.
`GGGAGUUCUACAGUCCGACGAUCGAUAGGGUUUCUCUGUGUAACAAACAGCUCGGGCUAUUCUGGGAAUUGCUCUGUAGACCACGCUGGCUUCGAACUCACAGAGAUCUGUAUUGUCUCUGCCUCCUGAGUGCUGGAAUUCUCGGGUGCCAA` — result for “RBNS enrichment (R)”: 0.341.
`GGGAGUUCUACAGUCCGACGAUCUUAUUCCUAAACACAGUUACAGACACGCAGUCGAGAUCUUUCUUGAUGCUUGGGAUCUCAAGACUGUCUGCCUUCCUGCCUGCUCCUCAGGCCUGAGAGAGGAGCUGCUCUGGAAUUCUCGGGUGCCAA` — result for “RBNS enrichment (R)”: 1.03.
`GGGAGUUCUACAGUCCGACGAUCACUUCUUGUCUGAGACAGAAAAAUUUCCUACUACAGCAGUGCAGUCCAGAGGUUAAGAUGUAUUAGAAUUAUACAAUAUCAGUUUAAAAAUCUGUAUGCAUAAAGAAUGCUGGAAUUCUCGGGUGCCAA` — result for “RBNS enrichment (R)”: 0.373.
`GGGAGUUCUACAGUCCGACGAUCAAUUAAUUCAGUGAAGGAUGAUUUUGCUCCUAGUUUUGGAGUUUGAAUUUCUGCCAGGAUUGAAUUAUUUUGAAAUCUCCUGUCUUUUUAAACUUUUUCAAAAUAGGUCUUGGAAUUCUCGGGUGCCAA`: “RBNS enrichment (R)” 0.662.
For `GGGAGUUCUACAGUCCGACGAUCUUAAGUUACAAUUACAUCUCUAAUUUUGGAUAAUAUUCAUUGGUUAACAAUAAAGUGACAAAAGCUCUGCCUUCAAGGUCCACUGUUGUUAUUUAACAUGGAUUUUUUGUUGGAAUUCUCGGGUGCCAA`, “RBNS enrichment (R)” read 0.285.
`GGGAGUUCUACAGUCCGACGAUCUUUGUCACUGCCUAUACCUGCAGUUGAGCUGAAUGGUACUCCAUGUGUUAAUAAUUGUUCUGAUGAAUCAUACAGUUGAAAUAAAGUGACGUAACAUCUUGUAUACUGUGUGGAAUUCUCGGGUGCCAA` — result for “RBNS enrichment (R)”: 1.17.
`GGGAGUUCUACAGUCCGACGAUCUGCAGUGGCAGGCGUGUUUGAGCGAGCCUCCUUCCUUAUUCAUAGGGAUUCAGUGUUGACUGUUCCCUGGUGUCCCCGCUGUCCUGUGUCGUCUGGUAUAGAAAGCGCAUUGGAAUUCUCGGGUGCCAA`: “RBNS enrichment (R)” 10.5.

Series 3
Target: CCND1, cyclin fold, Cln2 fusion (human)
Technique: yeast growth competition, sequencing
Medium: yeast
Setting: strong parent motif
Reference: not given
Reading: higher = stronger binding
Parent: INSM1 docking peptide (human); PKAIRKLHFEDEV
`PKAIRKLHFEKEV [D11K]`: “normalised enrichment score” 2.46.
For `PKAHRKLHFEDEV [I4H]`, “normalised enrichment score” read 0.852.
Under “normalised enrichment score”, `PKAIPKLHFEDEV [R5P]` is recorded as 0.333.
Under “normalised enrichment score”, `PKAIFKLHFEDEV [R5F]` is recorded as 0.571.
For `PKAIRKLEFEDEV [H8E]`, “normalised enrichment score” read 5.12.
`PRAIRKLHFEDEV [K2R]`: “normalised enrichment score” 4.87.
`PPAIRKLHFEDEV [K2P]` — result for “normalised enrichment score”: 3.22.
For `PKAIRKLSFEDEV [H8S]`, “normalised enrichment score” read 5.61.
For `PKAGRKLHFEDEV [I4G]`, “normalised enrichment score” read 1.45.
`PKAIRKLIFEDEV [H8I]` — result for “normalised enrichment score”: 5.71.

Series 4
Molecule: PhoQ, residues 284 288 289 292 302 303 SIHMAM
Technique: Sort-seq
Measured: YFP reporter
Medium: E. coli
Setting: PhoQ-PhoP variant library
Added: 10 µM Mg2+
Reference: high Mg2+ state
Reading: higher = stronger signaling
It gave 0.777 for fold induction (PhoP, residues 12 14 15 18 19 LHTVL (Escherichia coli, UniProt P23836)).
It gave 9.31 for fold induction (PhoP, residues 12 14 15 18 19 NQCAL (Escherichia coli, UniProt P23836)).
PhoP, residues 12 14 15 18 19 TQAML (Escherichia coli, UniProt P23836) — fold induction: 16.5.

For quick reference, copied from above (series 3):
`PKAIRKLHFEKEV [D11K]`: “normalised enrichment score” 2.46.
For `PKAHRKLHFEDEV [I4H]`, “normalised enrichment score” read 0.852.
